Published values from different studies.
Numbered parts are unrelated; each lists some results of a single study. Positions count from the first letter of the parent shown.
UniProt Q13464, sequence (whole entry, looked up): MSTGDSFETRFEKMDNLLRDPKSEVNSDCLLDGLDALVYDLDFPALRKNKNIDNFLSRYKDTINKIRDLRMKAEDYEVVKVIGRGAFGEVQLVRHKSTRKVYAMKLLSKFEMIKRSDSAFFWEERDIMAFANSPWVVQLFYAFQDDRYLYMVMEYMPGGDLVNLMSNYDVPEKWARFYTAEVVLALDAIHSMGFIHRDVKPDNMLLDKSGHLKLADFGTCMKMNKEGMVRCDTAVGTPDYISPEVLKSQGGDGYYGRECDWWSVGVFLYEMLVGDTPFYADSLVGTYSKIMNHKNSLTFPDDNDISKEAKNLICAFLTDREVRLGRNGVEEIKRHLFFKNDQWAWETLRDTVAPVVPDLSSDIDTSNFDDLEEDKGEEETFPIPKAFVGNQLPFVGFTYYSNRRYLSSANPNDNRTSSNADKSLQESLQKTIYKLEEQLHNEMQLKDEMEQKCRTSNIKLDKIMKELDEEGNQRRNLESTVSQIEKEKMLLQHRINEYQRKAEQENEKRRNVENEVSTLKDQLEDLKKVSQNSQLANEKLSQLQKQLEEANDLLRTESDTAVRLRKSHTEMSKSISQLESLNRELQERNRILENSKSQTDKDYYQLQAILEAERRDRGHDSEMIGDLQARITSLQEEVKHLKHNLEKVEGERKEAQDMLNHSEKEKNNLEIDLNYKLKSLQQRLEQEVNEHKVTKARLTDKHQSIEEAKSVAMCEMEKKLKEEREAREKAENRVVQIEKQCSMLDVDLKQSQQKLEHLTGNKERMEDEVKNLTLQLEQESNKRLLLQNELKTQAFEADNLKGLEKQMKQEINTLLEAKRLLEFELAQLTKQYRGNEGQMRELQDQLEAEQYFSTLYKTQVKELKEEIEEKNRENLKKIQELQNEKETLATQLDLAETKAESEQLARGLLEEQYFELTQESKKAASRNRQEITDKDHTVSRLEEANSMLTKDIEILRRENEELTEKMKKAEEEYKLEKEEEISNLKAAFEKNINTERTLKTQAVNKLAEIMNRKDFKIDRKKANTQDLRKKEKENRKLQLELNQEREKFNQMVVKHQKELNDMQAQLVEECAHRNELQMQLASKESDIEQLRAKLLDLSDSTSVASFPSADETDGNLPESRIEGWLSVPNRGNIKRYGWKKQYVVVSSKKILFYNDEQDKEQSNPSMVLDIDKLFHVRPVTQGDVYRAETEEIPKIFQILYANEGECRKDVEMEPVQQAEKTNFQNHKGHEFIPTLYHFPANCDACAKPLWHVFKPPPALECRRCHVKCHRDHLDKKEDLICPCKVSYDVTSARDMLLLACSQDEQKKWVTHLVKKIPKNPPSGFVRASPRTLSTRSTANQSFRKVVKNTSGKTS
UniProt P10721, sequence (whole entry, unmodified, looked up): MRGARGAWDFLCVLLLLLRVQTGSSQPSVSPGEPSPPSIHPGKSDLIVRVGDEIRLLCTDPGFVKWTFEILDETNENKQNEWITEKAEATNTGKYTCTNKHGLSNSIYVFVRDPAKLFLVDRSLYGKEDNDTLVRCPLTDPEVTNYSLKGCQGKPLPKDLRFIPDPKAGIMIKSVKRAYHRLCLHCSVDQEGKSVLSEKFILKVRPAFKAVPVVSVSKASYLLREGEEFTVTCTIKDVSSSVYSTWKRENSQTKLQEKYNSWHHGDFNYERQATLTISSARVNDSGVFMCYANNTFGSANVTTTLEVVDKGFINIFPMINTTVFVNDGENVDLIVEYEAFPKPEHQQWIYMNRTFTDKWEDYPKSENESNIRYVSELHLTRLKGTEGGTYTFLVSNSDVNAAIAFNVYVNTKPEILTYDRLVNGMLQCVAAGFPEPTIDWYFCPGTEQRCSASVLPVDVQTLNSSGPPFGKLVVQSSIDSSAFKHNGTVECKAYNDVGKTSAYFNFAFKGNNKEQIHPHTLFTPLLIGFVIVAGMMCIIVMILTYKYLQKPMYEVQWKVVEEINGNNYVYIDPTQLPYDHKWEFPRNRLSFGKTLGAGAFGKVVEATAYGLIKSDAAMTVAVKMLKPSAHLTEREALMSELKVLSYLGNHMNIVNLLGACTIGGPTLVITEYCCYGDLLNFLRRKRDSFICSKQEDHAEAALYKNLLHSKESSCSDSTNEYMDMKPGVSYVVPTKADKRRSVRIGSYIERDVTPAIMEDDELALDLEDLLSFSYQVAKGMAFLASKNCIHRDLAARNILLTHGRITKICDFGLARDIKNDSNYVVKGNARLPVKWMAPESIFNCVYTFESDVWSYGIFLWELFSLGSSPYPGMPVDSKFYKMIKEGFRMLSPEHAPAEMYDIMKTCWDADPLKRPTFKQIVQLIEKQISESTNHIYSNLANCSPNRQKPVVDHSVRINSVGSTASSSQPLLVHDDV
UniProt Q96NX5, sequence (whole entry, looked up): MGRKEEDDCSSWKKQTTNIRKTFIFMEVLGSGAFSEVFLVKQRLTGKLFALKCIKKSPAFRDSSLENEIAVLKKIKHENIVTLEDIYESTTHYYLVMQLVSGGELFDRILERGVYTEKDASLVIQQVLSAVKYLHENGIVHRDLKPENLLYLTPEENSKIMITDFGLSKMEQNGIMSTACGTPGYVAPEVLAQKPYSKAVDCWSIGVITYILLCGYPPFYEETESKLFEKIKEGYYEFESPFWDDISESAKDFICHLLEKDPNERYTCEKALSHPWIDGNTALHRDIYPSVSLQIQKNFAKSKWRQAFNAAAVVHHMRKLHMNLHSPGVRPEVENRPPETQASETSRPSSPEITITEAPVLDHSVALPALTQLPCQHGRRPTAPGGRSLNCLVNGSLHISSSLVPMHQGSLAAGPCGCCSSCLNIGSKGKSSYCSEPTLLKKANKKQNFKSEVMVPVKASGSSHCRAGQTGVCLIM
UniProt P31751, sequence (whole entry, looked up): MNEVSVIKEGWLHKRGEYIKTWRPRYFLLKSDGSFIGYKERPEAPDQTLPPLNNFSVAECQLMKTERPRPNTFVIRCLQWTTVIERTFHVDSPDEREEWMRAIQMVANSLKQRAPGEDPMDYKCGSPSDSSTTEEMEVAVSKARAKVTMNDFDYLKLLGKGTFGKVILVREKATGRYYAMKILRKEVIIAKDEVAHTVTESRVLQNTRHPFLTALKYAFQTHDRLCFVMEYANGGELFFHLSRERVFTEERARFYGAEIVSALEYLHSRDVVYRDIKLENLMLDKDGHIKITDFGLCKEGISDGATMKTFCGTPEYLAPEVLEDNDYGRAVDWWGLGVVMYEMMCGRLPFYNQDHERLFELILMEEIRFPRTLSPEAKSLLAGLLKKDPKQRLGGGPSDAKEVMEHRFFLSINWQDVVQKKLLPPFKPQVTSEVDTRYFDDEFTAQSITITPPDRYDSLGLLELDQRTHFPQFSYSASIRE
UniProt P50750, sequence (whole entry, looked up): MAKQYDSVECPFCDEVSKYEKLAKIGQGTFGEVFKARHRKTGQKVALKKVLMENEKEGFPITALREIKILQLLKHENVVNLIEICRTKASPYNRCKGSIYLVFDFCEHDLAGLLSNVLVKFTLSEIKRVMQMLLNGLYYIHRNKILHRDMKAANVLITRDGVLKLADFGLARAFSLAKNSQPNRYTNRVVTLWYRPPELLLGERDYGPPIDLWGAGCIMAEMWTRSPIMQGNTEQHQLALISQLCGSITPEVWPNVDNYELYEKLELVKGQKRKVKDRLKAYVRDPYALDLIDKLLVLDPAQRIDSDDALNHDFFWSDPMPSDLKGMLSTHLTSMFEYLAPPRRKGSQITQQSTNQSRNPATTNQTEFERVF
UniProt Q9HAZ1, sequence (whole entry, looked up): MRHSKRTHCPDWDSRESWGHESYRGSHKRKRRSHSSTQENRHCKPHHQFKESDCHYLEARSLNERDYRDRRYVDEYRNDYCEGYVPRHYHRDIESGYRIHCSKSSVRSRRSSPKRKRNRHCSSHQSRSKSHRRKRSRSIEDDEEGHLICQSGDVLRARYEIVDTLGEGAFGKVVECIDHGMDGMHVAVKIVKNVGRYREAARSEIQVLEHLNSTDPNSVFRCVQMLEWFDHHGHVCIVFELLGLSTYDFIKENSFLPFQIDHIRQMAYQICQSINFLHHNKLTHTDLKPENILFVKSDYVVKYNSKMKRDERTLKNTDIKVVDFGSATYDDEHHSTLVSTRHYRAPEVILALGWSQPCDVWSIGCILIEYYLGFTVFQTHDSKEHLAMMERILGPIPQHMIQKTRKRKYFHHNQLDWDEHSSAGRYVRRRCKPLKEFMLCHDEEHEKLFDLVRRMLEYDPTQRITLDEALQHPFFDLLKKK
UniProt Q8IU85, sequence (whole entry, looked up): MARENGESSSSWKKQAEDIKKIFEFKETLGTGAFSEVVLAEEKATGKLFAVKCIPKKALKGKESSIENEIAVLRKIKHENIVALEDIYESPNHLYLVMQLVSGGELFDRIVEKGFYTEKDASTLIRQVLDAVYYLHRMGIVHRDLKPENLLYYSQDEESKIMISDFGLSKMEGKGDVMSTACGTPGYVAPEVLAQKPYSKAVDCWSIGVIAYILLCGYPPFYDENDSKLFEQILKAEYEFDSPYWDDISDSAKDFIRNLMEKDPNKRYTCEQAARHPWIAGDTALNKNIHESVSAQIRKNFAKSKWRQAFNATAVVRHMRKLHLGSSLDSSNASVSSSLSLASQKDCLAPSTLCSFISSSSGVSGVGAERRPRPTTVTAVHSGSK
UniProt Q6P2M8, sequence (whole entry, looked up): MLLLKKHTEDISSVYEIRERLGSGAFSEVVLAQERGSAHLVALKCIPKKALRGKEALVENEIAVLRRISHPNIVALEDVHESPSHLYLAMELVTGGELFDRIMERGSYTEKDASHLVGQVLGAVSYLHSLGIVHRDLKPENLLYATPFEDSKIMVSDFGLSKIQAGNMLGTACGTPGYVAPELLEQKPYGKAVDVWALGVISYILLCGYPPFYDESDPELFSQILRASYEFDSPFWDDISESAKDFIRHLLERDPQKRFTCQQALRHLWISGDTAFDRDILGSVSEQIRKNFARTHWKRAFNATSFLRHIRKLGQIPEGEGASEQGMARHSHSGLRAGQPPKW

Series 1
Target: Histone acetyltransferase KAT6A, both winged helices, GST fusion (KAT6A, Homo sapiens, UniProt Q92794, residues 1-181)
Technique: protein binding microarray
Form: double-stranded DNA, one strand shown
Matrix: in vitro
Concentration: not given
Notes: 8-mer, flanks averaged, mean of 2 arrays, mostly near background
Baseline: not given
Reading: higher = stronger binding
Target sequence (chain): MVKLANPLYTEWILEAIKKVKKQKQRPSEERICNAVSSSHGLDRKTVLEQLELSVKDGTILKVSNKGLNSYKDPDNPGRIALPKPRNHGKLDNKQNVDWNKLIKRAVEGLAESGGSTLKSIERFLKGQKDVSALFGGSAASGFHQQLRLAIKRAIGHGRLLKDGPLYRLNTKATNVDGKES
Sequence	E-score
CACCAAGC	0.00874
CAATAGTG	0.0295
AAACCGCC	0.203
ATCGAACC	0.0347
GTCCGTTA	0.12
ACCACTTA	-0.0723
CAATCCTC	-0.244
CTGGGTGA	-0.0962

Series 2
Structure (SMILES): COc1ccc(S(=O)(=O)N(CCO)c2ccccc2CN(C)CC=Cc2ccc(Cl)cc2)cc1
Observed: enzyme activity
Mode: inhibitor
Concentration: 0.5 µM
Baseline: control
target	remaining activity [%]
NEK3 (Homo sapiens, UniProt P51956)	96.2
MAPK14 (Homo sapiens, UniProt Q16539)	95.1
Myosin-IIIb (MYO3B, Homo sapiens, UniProt Q8WXR4)	90.2
CLK3 (Homo sapiens, UniProt P49761)	100
AKT2 (Homo sapiens, UniProt P31751)	106
CLK4 (Homo sapiens, UniProt Q9HAZ1)	96
Cyclin-dependent kinase 9, with cyclin K (CDK9, Homo sapiens, UniProt P50750)	99.1
RPS6KA4 (Homo sapiens, UniProt O75676)	107
ROCK1 (Homo sapiens, UniProt Q13464)	99.7
KDR (Homo sapiens, UniProt P35968)	101
MINK1 (Homo sapiens, UniProt Q8N4C8)	98.1
PNCK (Homo sapiens, UniProt Q6P2M8)	99.8
CAMK4 (Homo sapiens, UniProt Q16566)	97.5
DDR2 (Homo sapiens, UniProt Q16832)	96.8

Series 3
SMILES: NS(=O)(=O)c1cc(NC(=O)Cc2ccccc2)ccc1Oc1cccc(Cl)c1
Observed: cell-free assay
Technique: competition with immobilised ligand
Concentration: 1 µM
target	remaining binding
ULK1 (Homo sapiens, UniProt O75385)	88%
KIT (Homo sapiens, UniProt P10721, V559D)	81%
CAMK1D (Homo sapiens, UniProt Q8IU85)	100%
CAMK1G (Homo sapiens, UniProt Q96NX5)	84%
MAP3K12 (Homo sapiens, UniProt Q12852)	80%
DCLK1 (Homo sapiens, UniProt O15075)	86%
CDKL3 (Homo sapiens, UniProt Q8IVW4)	95%

Series 4
Target: CEP164, C-terminal peptide (human)
Technique: DHFR complementation, deep sequencing
Matrix: yeast
Notes: single substitutions, model-inferred values
Baseline: wild type
Reading: higher = weaker binding
Starting sequence: PDZK1, PDZ domain 2 (human); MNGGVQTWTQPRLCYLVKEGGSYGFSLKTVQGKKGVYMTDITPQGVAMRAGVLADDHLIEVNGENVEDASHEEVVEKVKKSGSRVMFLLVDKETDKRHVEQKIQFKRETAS; partner HNRVKVYRF
Substitution	binding free energy change [kcal/mol]
A54E	-0.513
E67V	-0.0517
K77E	0.217
V78F	2.54
T109C	-0.202
E64Q	0.000504
V46T	0.327
G21T	-0.205
